Results collected from several papers.
Lines come from different studies, so protocols differ. ± gives the spread as reported.
Organism: varicella-zoster virus

Cc1cn(Cc2ccc(O)c(C=O)c2)c(=O)[nH]c1=O has an EC50 of greater than 100 µM (plaque formation, plaque reduction; HEL fibroblasts, TK+ strain OKA).
For O=c1[nH]c(=O)n([C@H]2C[C@H](O)[C@@H](CO)O2)cc1/C=C/Br, the EC50 was 2.1 µM (plaque formation; HEL, TK+).
NC1=NC(=O)N(C[C@@H](CF)OCP(=O)(O)O)CN1 has an EC50 of greater than 100 µM (plaque formation; HEL, TK-deficient 07-1).
With O=C(N/N=C1\C(=O)Nc2ccc([N+](=O)[O-])cc21)N/N=C1\C(=O)Nc2ccc([N+](=O)[O-])cc21 the EC50 was greater than 20 µM (plaque formation; HEL, TK+).
Nc1ccn(C[C@@H](CO)OCP(=O)(O)O)c(=O)n1 gave an EC50 of 0.92 ± 0.38 µM (plaque formation; HEL, Oka TK+).
With Nc1ncn(CC(O)C(F)(F)F)c(=O)n1 (centres unmarked) the EC50 was 126 ± 13.8 µM (plaque formation; HEL, TK-deficient 07-1).
For Cc1nn(Cc2ccc(O)c(C=O)c2)c(=O)[nH]c1=O, the EC50 was greater than 20 µM (plaque formation, plaque reduction; HEL fibroblasts, TK- strain 07-1).
CCCCCCCCCCCCCCCCOCCCOP(=O)(O)COCCn1cnc2c(=O)[nH]c(=O)[nH]c21 gave an EC50 of 0.1 ± 0.05 µM (plaque formation; HEL, Oka TK+).
For Nc1ncn(CC(OCP(=O)(O)O)C(F)(F)F)c(=O)n1 (centres unmarked), the EC50 was greater than 100 µM (plaque formation; HEL, TK-deficient 07-1).
O=C1Nc2ccccc2/C1=N/NC(=S)N/N=C1\C(=O)Nc2ccccc21 gave an EC50 of greater than 20 µM (plaque formation; HEL, TK+).
For CCCCN1C(=O)c2cccc3cc(NC(=O)[C@H]4C[C@@H](P(=O)(OCC)OCC)N(C)O4)cc(c23)C1=O (racemic), the EC50 was 45 µM (viral plaque formation, plaque reduction; HEL, thymidine kinase deficient).
O=C(N/N=C1\C(=O)Nc2ccc(Cl)cc21)N/N=C1\C(=O)Nc2ccc(Cl)cc21 gave an EC50 of greater than 20 µM (plaque formation; HEL, TK+).
The EC50 of CC(C)OP(=O)(CO[C@H](CF)Cn1cnc(N)nc1=O)OC(C)C is reported as 8.8 ± 0.2 µM (plaque formation; HEL, TK-deficient 07-1).
For Cc1ccc2c(c1)/C(=N/NC(=O)N/N=C1\C(=O)Nc3ccc(C)cc31)C(=O)N2, the EC50 was greater than 100 µM (plaque formation; HEL, TK+).
O=Cc1cc(Cn2ccc(=O)[nH]c2=O)ccc1O gave an EC50 of greater than 100 µM (plaque formation, plaque reduction; HEL fibroblasts, TK+ strain OKA).
For O=c1[nH]c(=O)n([C@H]2C[C@H](O)[C@@H](CO)O2)cc1/C=C/Br, the EC50 was 19.6 ± 23 µM (plaque formation; HEL, TK- 07-1).
O=Cc1cc(Cn2cc(F)c(=O)[nH]c2=O)ccc1O gave an EC50 of greater than 100 µM (plaque formation, plaque reduction; HEL fibroblasts, TK- strain 07-1).
O=c1nc(NC2CC2)c2ncn(CCOCP(=O)(O)O)c2[nH]1 has an EC50 of greater than 100 µM (plaque formation; HEL, Oka TK+).
O=C1/C(=N\NC(=S)NN=Cc2ccccc2)c2ccccc2N1Cc1ccccc1 gave an EC50 of greater than 20 µM (plaque formation; HEL, TK-).
For O=c1[nH]c(=O)n([C@H]2C[C@H](O)[C@@H](CO)O2)cc1/C=C/Br, the EC50 was 26.7 ± 19 µM (plaque formation; HEL, TK-deficient 07-1).

For quick reference, copied from above:
Cc1cn(Cc2ccc(O)c(C=O)c2)c(=O)[nH]c1=O has an EC50 of greater than 100 µM (plaque formation, plaque reduction; HEL fibroblasts, TK+ strain OKA).
